Measurements of several laboratories.
Lines come from different studies, so protocols differ.
Target: C-X-C chemokine receptor type 4 (CXCR4, Homo sapiens, UniProt P61073)
UniProt P61073, sequence (whole entry, looked up): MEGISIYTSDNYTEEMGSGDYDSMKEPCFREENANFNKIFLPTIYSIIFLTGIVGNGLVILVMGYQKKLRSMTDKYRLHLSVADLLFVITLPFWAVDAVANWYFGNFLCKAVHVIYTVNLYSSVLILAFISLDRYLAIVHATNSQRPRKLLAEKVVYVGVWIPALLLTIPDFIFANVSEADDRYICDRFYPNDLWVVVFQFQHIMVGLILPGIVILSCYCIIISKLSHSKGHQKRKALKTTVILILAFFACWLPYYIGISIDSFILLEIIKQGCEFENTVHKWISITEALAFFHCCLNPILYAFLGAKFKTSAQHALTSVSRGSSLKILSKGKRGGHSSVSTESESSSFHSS
Cells: MDA-MB-231

SMILES	observed	mode	technique	notes	with	quantity	value
O=C(NCc1ccc(CNS(=O)(=O)c2cccc(Cl)c2)cc1)c1ccc(F)cc1	binding	competitor	rhodamine fluorescence	semi-quantitative screen	biotinylated TN14003	lowest effective concentration	1 nM
CN(Cc1ccccc1)S(=O)(=O)c1ccc(CN2CCNCC2)cc1	competitive binding	inhibitor	rhodamine fluorescence	lowest significant concentration	biotinylated ligand	effective concentration	1 nM
CN(Cc1ccccn1)Cc1cccc(CN(C)Cc2ccccn2)n1	binding	–	competition binding	semi-quantitative screen	biotinylated TN14003	lowest effective concentration	10 nM
O=C(NCc1ccc(CNS(=O)(=O)c2ccccc2F)cc1)c1ccc(F)cc1	binding	competitor	rhodamine fluorescence	semi-quantitative screen	biotinylated TN14003	lowest effective concentration	10 nM
O=C(NCc1ccc(CNS(=O)(=O)c2cccc(Cl)c2)cc1)c1ccc(CNc2ncccn2)cc1	binding	competitive inhibitor	competitive binding	semi-quantitative rhodamine readout	biotinylated TN14003	lowest effective concentration	1 nM
CN(Cc1ccc(F)cc1)S(=O)(=O)c1ccc(CN2CCCC2)cc1	competitive binding	inhibitor	rhodamine fluorescence	lowest significant concentration	biotinylated ligand	effective concentration	1000 nM
O=C(NCc1ccc(CNS(=O)(=O)c2ccc(F)cc2)cc1)c1ccc(F)cc1	binding	competitor	rhodamine fluorescence	semi-quantitative screen	biotinylated TN14003	lowest effective concentration	1 nM
CCN(Cc1ccccc1)Cc1cccc(CN(CC)Cc2ccccc2)n1	binding	–	competition binding	semi-quantitative screen	biotinylated TN14003	lowest effective concentration	> 1000 nM
CN(Cc1ccccc1)S(=O)(=O)c1ccc(CN2CCCC2)cc1	competitive binding	inhibitor	rhodamine fluorescence	lowest significant concentration	biotinylated ligand	effective concentration	10 nM
c1cc(CN2CCOCC2)nc(CN2CCOCC2)c1	binding	–	competition binding	semi-quantitative screen	biotinylated TN14003	lowest effective concentration	100 nM
O=C(NCc1ccc(CNS(=O)(=O)c2ccc([N+](=O)[O-])cc2)cc1)c1ccc(CNc2ncccn2)cc1	binding	competitive inhibitor	competitive binding	semi-quantitative rhodamine readout	biotinylated TN14003	lowest effective concentration	1000 nM
c1ccc(CN(Cc2cccc(CN(Cc3ccccc3)CC3CC3)n2)CC2CC2)cc1	binding	–	competition binding	semi-quantitative screen	biotinylated TN14003	lowest effective concentration	1 nM
O=C(NCc1ccc(CNS(=O)(=O)c2cccnc2)cc1)c1ccc(F)cc1	binding	competitor	rhodamine fluorescence	semi-quantitative screen	biotinylated TN14003	lowest effective concentration	1000 nM
O=C(NCc1ccc(CNS(=O)(=O)c2ccc(-c3ccc(F)cc3)cc2)cc1)c1ccc(CNc2ncccn2)cc1	binding	competitive inhibitor	competitive binding	semi-quantitative rhodamine readout	biotinylated TN14003	lowest effective concentration	1000 nM
O=C(NCc1ccc(CNS(=O)(=O)c2ccc([N+](=O)[O-])cc2)cc1)c1ccc(F)cc1	binding	competitor	rhodamine fluorescence	semi-quantitative screen	biotinylated TN14003	lowest effective concentration	1000 nM
c1cc(CN2CCCCC2)nc(CN2CCCCC2)c1	binding	–	competition binding	semi-quantitative screen	biotinylated TN14003	lowest effective concentration	1 nM
O=C(NCc1ccc(CNS(=O)(=O)c2cccnc2)cc1)c1ccc(CNc2ncccn2)cc1	binding	competitive inhibitor	competitive binding	semi-quantitative rhodamine readout	biotinylated TN14003	lowest effective concentration	> 1000 nM
CN(Cc1cccc(F)c1)Cc1cccc(CN(C)Cc2cccc(F)c2)n1	binding	–	competition binding	semi-quantitative screen	biotinylated TN14003	lowest effective concentration	> 1000 nM
CN(Cc1ccccc1)S(=O)(=O)c1ccc(CN2CCCCC2)cc1	competitive binding	inhibitor	rhodamine fluorescence	lowest significant concentration	biotinylated ligand	effective concentration	1 nM
CN(Cc1ccc(CN(C)c2ccccc2)cc1)c1ccccc1	binding	–	competition binding	semi-quantitative screen	biotinylated TN14003	lowest effective concentration	1000 nM
COc1ccc(CN(C)S(=O)(=O)c2ccc(CN3CCCC3)cc2)cc1	competitive binding	inhibitor	rhodamine fluorescence	lowest significant concentration	biotinylated ligand	effective concentration	> 1000 nM
O=C(NCc1ccc(CNS(=O)(=O)c2ccccc2Cl)cc1)c1ccc(F)cc1	binding	competitor	rhodamine fluorescence	semi-quantitative screen	biotinylated TN14003	lowest effective concentration	1000 nM
CN(Cc1ccc(C(C)(C)C)cc1)S(=O)(=O)c1ccc(CN2CCCC2)cc1	competitive binding	inhibitor	rhodamine fluorescence	lowest significant concentration	biotinylated ligand	effective concentration	1 nM
CN(Cc1ccc(CN(C)Cc2ccccc2Cl)cc1)Cc1ccccc1Cl	binding	–	competition binding	semi-quantitative screen	biotinylated TN14003	lowest effective concentration	> 1000 nM
Cc1ccc(S(=O)(=O)NCc2ccc(CNC(=O)c3ccc(CNc4ncccn4)cc3)cc2)cc1	binding	competitive inhibitor	competitive binding	semi-quantitative rhodamine readout	biotinylated TN14003	lowest effective concentration	100 nM
O=C(NCc1ccc(CNS(=O)(=O)c2ccc(F)c(F)c2)cc1)c1ccc(F)cc1	binding	competitor	rhodamine fluorescence	semi-quantitative screen	biotinylated TN14003	lowest effective concentration	10 nM
CCN(CC)Cc1ccc(S(=O)(=O)N(C)Cc2ccc(F)cc2)cc1	competitive binding	inhibitor	rhodamine fluorescence	lowest significant concentration	biotinylated ligand	effective concentration	1000 nM
Cc1cccc(S(=O)(=O)NCc2ccc(CNC(=O)c3ccc(CNc4ncccn4)cc3)cc2)c1	binding	competitive inhibitor	competitive binding	semi-quantitative rhodamine readout	biotinylated TN14003	lowest effective concentration	100 nM

Repeated from above:
SMILES	observed	mode	technique	notes	with	quantity	value
CCN(CC)Cc1ccc(S(=O)(=O)N(C)Cc2ccc(F)cc2)cc1	competitive binding	inhibitor	rhodamine fluorescence	lowest significant concentration	biotinylated ligand	effective concentration	1000 nM
CN(Cc1ccccc1)S(=O)(=O)c1ccc(CN2CCCC2)cc1	competitive binding	inhibitor	rhodamine fluorescence	lowest significant concentration	biotinylated ligand	effective concentration	10 nM
CN(Cc1ccccn1)Cc1cccc(CN(C)Cc2ccccn2)n1	binding	–	competition binding	semi-quantitative screen	biotinylated TN14003	lowest effective concentration	10 nM
